Experimental data gathered from unrelated publications.
Compare with care: the assays were run in different laboratories. In brackets after ≈: the same amount, converted by molar mass.

SMILES = COc1ccc2c(ccc3oc([N+](=O)[O-])c(OC)c32)c1; organism = Salmonella enterica; assay = REMA; endpoint = MIC90; value = > 32 µg/mL
SMILES = CC[C@H](C)[C@H](NC(=O)[C@H](CC(N)=O)NC(=O)[C@H](Cc1ccccc1)NC(=O)[C@H](CCCNC(=N)N)NC(=O)[C@H](CCCNC(=N)N)NC(=O)[C@@H](N)CCCCN)C(=O)N[C@@H](CCCCN)C(=O)N[C@@H](CC(C)C)C(=O)N[C@@H](Cc1c[nH]c2ccccc12)C(=O)N[C@@H](CCCCN)C(=O)N[C@H](C(=O)N[C@@H](Cc1ccccc1)C(=O)O)[C@@H](C)O; organism = Salmonella enterica; endpoint = MBC; value = 128 µg/mL (≈ 78.2 µM)
SMILES = COC(=O)c1ccc2c(ccc3oc([N+](=O)[O-])cc32)c1; organism = Salmonella enterica; assay = REMA; endpoint = MIC90; value = > 32 µg/mL
SMILES = CC[C@H](C)CCCCC(=O)N[C@@H](CCN)C(=O)N[C@H](C(=O)N[C@@H](CCN)C(=O)N[C@H]1CCNC(=O)[C@H]([C@@H](C)O)NC(=O)[C@H](CCN)NC(=O)[C@H](CCN)NC(=O)[C@H](CC(C)C)NC(=O)[C@@H](Cc2ccccc2)NC(=O)[C@H](CCN)NC1=O)[C@@H](C)O; organism = Salmonella enterica; assay = broth microdilution; system = ATCC 700720; setting = 24 h; endpoint = MIC; value = < 1 µM
SMILES = CC/C(=C(\c1ccccc1)c1ccc(OCCN(C)C)cc1)c1ccccc1; organism = human coronavirus OC43; assay = virus-induced cell killing; system = MRC-5; setting = screen; endpoint = maximum inhibition; value = 3.81%
SMILES = CCCCCCCCCC(=O)N[C@@H](Cc1c[nH]c2ccccc12)C(=O)N[C@H](CC(N)=O)C(=O)N[C@@H](CC(=O)O)C(=O)N[C@@H]1C(=O)NCC(=O)N[C@@H](CCCN)C(=O)N[C@@H](CC(=O)O)C(=O)N[C@H](C)C(=O)N[C@@H](CC(=O)O)C(=O)NCC(=O)N[C@H](CO)C(=O)N[C@@H]([C@H](C)CC(=O)O)C(=O)N[C@@H](CC(=O)c2ccccc2N)C(=O)O[C@@H]1C; organism = Salmonella enterica; assay = broth microdilution; system = ATCC 700720; setting = 24 h; endpoint = MIC; value = > 50 µM
SMILES = CC[C@H](C)[C@H](NC(=O)[C@H](Cc1ccccc1)NC(=O)[C@@H](NC(=O)[C@H](CO)NC(=O)[C@@H](N)CCCNC(=N)N)[C@@H](C)CC)C(=O)N[C@@H](CCCCN)C(=O)N[C@@H](Cc1ccc(O)cc1)C(=O)N[C@@H](CCCCN)C(=O)N[C@@H](CO)C(=O)N[C@@H](CCCCN)C(=O)N1CCC[C@H]1C(=O)N[C@@H](Cc1ccccc1)C(=O)N[C@@H](CS)C(=O)N[C@@H](CCC(=O)O)C(=O)N[C@@H](CCCCN)C(=O)N[C@@H](CC(C)C)C(=O)N[C@@H](CC(C)C)C(=O)N[C@@H](CO)C(=O)N[C@@H](Cc1c[nH]c2ccccc12)C(=O)N[C@H](C(=O)N[C@@H](CCCCN)C(=O)N[C@@H](CO)C(=O)O)C(C)C; organism = Salmonella enterica; endpoint = MBC; value = 128 µg/mL (≈ 47.6 µM)
SMILES = [H]/N=C(/N)N[C@H]1[C@H](O)[C@@H](O)[C@H](O[C@@H]2O[C@@H](C)[C@](O)(C=O)[C@H]2O[C@@H]2O[C@@H](CO)[C@H](O)[C@@H](O)[C@@H]2NC)[C@@H](N/C(N)=N\[H])[C@@H]1O; organism = Salmonella enterica; setting = 20 h, pH 5.5; endpoint = MIC; value = > 4100 µg/mL
SMILES = O=[N+]([O-])c1cc2c(ccc3cc(Br)ccc32)o1; organism = Salmonella enterica; assay = REMA; endpoint = MIC90; value = > 32 µg/mL
SMILES = NOCC(=O)O; organism = human coronavirus OC43; assay = virus-induced cell killing; system = MRC-5; setting = screen; endpoint = maximum inhibition; value = 15.6%
SMILES = CN(C)[C@@H]1C(O)=C(C(N)=O)C(=O)[C@@]2(O)C(O)=C3C(=O)c4c(O)cccc4[C@@](C)(O)[C@H]3C[C@@H]12; organism = Salmonella enterica; setting = 20 h, pH 7.2; endpoint = MIC; value = 2 µg/mL

Repeated from above:
SMILES = CC[C@H](C)[C@H](NC(=O)[C@H](Cc1ccccc1)NC(=O)[C@@H](NC(=O)[C@H](CO)NC(=O)[C@@H](N)CCCNC(=N)N)[C@@H](C)CC)C(=O)N[C@@H](CCCCN)C(=O)N[C@@H](Cc1ccc(O)cc1)C(=O)N[C@@H](CCCCN)C(=O)N[C@@H](CO)C(=O)N[C@@H](CCCCN)C(=O)N1CCC[C@H]1C(=O)N[C@@H](Cc1ccccc1)C(=O)N[C@@H](CS)C(=O)N[C@@H](CCC(=O)O)C(=O)N[C@@H](CCCCN)C(=O)N[C@@H](CC(C)C)C(=O)N[C@@H](CC(C)C)C(=O)N[C@@H](CO)C(=O)N[C@@H](Cc1c[nH]c2ccccc12)C(=O)N[C@H](C(=O)N[C@@H](CCCCN)C(=O)N[C@@H](CO)C(=O)O)C(C)C; organism = Salmonella enterica; endpoint = MBC; value = 128 µg/mL (≈ 47.6 µM)
SMILES = [H]/N=C(/N)N[C@H]1[C@H](O)[C@@H](O)[C@H](O[C@@H]2O[C@@H](C)[C@](O)(C=O)[C@H]2O[C@@H]2O[C@@H](CO)[C@H](O)[C@@H](O)[C@@H]2NC)[C@@H](N/C(N)=N\[H])[C@@H]1O; organism = Salmonella enterica; setting = 20 h, pH 5.5; endpoint = MIC; value = > 4100 µg/mL
